Measured values collected from several papers.
Parts stem from different laboratories: compare values within a part only. Several values in a cell are separate wells, animals, samples, runs or records.
UniProt P53667, sequence (whole entry, looked up): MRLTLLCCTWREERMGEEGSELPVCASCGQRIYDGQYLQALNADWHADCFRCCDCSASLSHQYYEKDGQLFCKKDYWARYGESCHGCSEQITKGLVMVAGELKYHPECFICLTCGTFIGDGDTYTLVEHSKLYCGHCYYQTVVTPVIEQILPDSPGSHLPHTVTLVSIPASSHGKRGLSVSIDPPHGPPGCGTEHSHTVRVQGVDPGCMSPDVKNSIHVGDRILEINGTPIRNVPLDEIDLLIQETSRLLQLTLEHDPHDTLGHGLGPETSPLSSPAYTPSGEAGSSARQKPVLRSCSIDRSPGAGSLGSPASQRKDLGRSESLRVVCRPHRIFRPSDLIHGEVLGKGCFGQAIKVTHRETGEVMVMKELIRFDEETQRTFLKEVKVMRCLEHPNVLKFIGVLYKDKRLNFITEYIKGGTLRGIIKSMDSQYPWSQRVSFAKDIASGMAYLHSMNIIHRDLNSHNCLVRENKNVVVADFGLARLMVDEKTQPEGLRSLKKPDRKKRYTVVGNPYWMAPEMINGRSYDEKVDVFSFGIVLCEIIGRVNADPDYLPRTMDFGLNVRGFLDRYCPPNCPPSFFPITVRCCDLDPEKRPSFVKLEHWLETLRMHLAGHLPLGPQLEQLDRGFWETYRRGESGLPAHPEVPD
UniProt Q06418, sequence (whole entry, looked up): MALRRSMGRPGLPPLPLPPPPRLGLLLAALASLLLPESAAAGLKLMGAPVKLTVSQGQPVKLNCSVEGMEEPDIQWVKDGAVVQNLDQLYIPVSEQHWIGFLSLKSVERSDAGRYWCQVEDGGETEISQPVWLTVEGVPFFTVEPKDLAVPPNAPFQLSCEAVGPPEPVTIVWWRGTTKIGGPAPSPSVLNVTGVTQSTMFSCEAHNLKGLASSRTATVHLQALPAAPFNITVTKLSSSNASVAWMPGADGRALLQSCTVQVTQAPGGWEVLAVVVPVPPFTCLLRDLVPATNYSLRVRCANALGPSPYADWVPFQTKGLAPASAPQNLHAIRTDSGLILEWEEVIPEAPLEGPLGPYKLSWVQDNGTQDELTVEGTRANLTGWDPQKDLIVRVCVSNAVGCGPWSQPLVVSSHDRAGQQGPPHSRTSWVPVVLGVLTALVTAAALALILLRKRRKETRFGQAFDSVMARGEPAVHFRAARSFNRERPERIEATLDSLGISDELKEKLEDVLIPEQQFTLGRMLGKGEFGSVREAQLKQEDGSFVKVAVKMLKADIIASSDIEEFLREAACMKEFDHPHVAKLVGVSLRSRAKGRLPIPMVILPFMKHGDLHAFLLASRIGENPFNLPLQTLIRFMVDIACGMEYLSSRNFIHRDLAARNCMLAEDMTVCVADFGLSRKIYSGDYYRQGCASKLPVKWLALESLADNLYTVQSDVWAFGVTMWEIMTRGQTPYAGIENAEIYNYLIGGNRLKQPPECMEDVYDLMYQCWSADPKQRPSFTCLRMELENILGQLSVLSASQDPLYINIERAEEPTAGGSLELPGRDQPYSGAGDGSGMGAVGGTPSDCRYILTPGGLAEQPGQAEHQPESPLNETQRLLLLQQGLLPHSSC

Series 1
Cell line: mouse MPNST tumor cells
Technique: high-content nuclear imaging
Measured: cell number
Concentration: 10 µM
Time: 12 h
Notes: mean of 2 replicates
Baseline: plate mean
Reading: higher = more cells
SMILES	nuclei count
CN1CCC(=C2c3ccccc3C=Cc3ccccc32)CC1	0.607 z-score
COc1nc(C)nc(Cl)c1NC1=NCCN1	1.6 z-score and 0.376 z-score
OCC(O)CN1CCN(c2ccccc2)CC1 (racemic)	1.83 z-score

Series 2
SMILES: CO[C@H]1CC[C@H](CNc2ccc(S(=O)(=O)NC(=O)c3ccc(N4CCN(CC5=C(c6ccc(Cl)cc6)CC(C)(C)CC5)CC4)cc3Oc3cnc4[nH]ccc4c3)cc2[N+](=O)[O-])CC1
Effect on: cell-free assay
Technique: competition with immobilised ligand
Concentration: 1 µM
target	remaining binding
LIM domain kinase 1 (LIMK1, Homo sapiens, UniProt P53667)	89%
Tyrosine-protein kinase receptor TYRO3 (TYRO3, Homo sapiens, UniProt Q06418)	84%
Receptor-type tyrosine-protein kinase FLT3 (FLT3, Homo sapiens, UniProt P36888, N841I)	100%
cAMP-dependent protein kinase catalytic subunit beta (PRKACB, Homo sapiens, UniProt P22694)	88%

Single results of other studies
SMILES	tested on	assay	system	setting	endpoint	value
CC[C@@H](C)c1nc2cc(Nc3ccnc4ccc(S(=O)(=O)C(C)C)cc34)ccc2s1	HT-29	necroptosis		added: TNF-α, Smac mimetic, z-VAD	EC50	1970 nM
Cn1cc(C2(C)CN(Cc3nc(-c4cccs4)n[nH]3)CCO2)cn1 (stereo not drawn)			human, microsomes or S9	2 µM, 0.5 h	remaining compound	83.3%

Excerpt of the above (series 1):
SMILES	nuclei count
COc1nc(C)nc(Cl)c1NC1=NCCN1	1.6 z-score and 0.376 z-score
